Published values pooled from the literature.
Lines come from different studies, so protocols differ. Values joined by “and” are separate records of one study, mostly repeats; a detail may differ. ± gives the spread as reported.

Cn1cc(-c2ccc(-c3cncc(Cl)c3N3CCC4(CCNC4=O)CC3)cc2)cn1 — result for “log2 fold change”: -1.49 (COLO 205; gene expression, microarray, measured: PFKFB4 mRNA; concentration not given, 2 h; relative to: untreated cells).
For COc1cnc(-n2cnc(C)n2)c2[nH]cc(C(=O)C(=O)N3CCN(C(=O)c4ccccc4)CC3)c12, the Emax was 1 log10 copies/mL (measured: HIV-1 RNA change; HIV-1 patients, plasma).
With CC(C)NCC(O)c1ccc(O)c(O)c1 (stereo not drawn) the sarcomere length was 1.49 µm (ventricular cardiomyocytes, C57BL/6 mouse; dose not given, 0.188 s).
NC(=O)c1cnc2[nH]ccc2c1N[C@@H]1[C@@H]2CC3C[C@H]1C[C@@](O)(C3)C2 — result for “CD8+ effector memory change”: 0.32% (flow cytometry; Japanese healthy men, blood; oral, 30 mg twice daily, 72 h after day 7 dose; relative to: baseline).
For CCCCCN1C[C@H](O)[C@@H](O)[C@H](O)[C@@H]1CO, “number of increased sphingolipids” read 12 (mouse Hexb-/-, cerebral cortex; 300 mg/kg/day; relative to: untreated Hexb-/- mice).
COc1ccc(C2=N[C@@H](c3ccc(Cl)cc3)[C@@H](c3ccc(Cl)cc3)N2C(=O)N2CCNC(=O)C2)c(OC(C)C)c1 gave a necrotic area of 16.2% and 23.7% and 20.3% and 18.5% and 22.4% (histology; Dmd C3333Y mice, quadriceps; dose not given).
CO[C@H]1CC[C@H](N2C(=O)CNc3ncc(-c4ccc(C(C)(C)O)nc4)nc32)CC1: “p4EBP1 change from baseline” -48.3% (flow cytometry; stimulated T cells, human, blood; 45 mg single dose, 5 h, mean; relative to: baseline).
OC(CCN1CCCCC1)(c1ccccc1)C1CC2C=CC1C2 (stereo not drawn) — result for “EEG Beta3-power Pz-O2”: 2 µV² (resting-state EEG; healthy elderly humans; oral, 2 mg, eyes open, LS mean).
c1ccc(-c2n[nH]cc2-c2ccnc3ccccc23)nc1 — result for “log2 fold change”: 1.32 (kinase binding, competitor, MIB/MS competition, measured: HRK1; Candida albicans cell lysate; 1 µM; relative to: DMSO).
C[C@H](Oc1ccc(Br)cc1-c1ccon1)C(=O)O: “peak amplitude change” 115% (muscle velocity recovery cycles; human, tibialis anterior muscle; 1200 mg single dose, 3.5 h post-dose, frequency ramp, last response at 15 Hz).
N#Cc1ccc2c(c1)[C@H]1CCCN(C(=O)c3ccc4[nH]cnc4c3)[C@H]1C2 — result for “change in fasting glucose”: 15% (human, plasma; 160 mg, day 15, 360 h; relative to: placebo and baseline).
The EC50 of CCCCCCNc1nc(NC2CCN(C)CC2)c2cc(OC)c(OC)cc2n1 is reported as 5.93 µM (Toxoplasma gondii; parasite growth; HFF, bradyzoite, alkaline-induced).
Under “delta delta Ct”, COc1ccc(-c2cncc(N[C@@H](C)c3cccc(NC(=O)c4cncc(C)c4)c3)n2)cc1OC is recorded as -0.11 (measured: rno-miR-186-5p; rat SU5416/hypoxia model, lung; dose not given, unit not given; relative to: SU5416/hypoxia vehicle).
N#Cc1ccn2c(-c3ccncc3)c(-c3ccc(F)cc3)nc2c1 — result for “log2 fold change”: 0.202 (kinase binding, competitor, MIB/MS competition, measured: TPK2; Candida albicans cell lysate; 1 µM; relative to: DMSO).
C[C@]12CC[C@@H]3c4ccc(O)cc4CC[C@H]3[C@@H]1CC[C@@H]2O has a mRNA level of 0.0127 (RT-qPCR, measured: CO; Arabidopsis thaliana ING1:FLAG seedlings; dose not given, 6 h (ZT12), unit not given; relative to: TUB2).
O=C1c2ccccc2C(=O)c2c(NCCc3ccc(O)cc3)ccc(NCCc3ccc(O)cc3)c21 gave an EC90 of 10.3 µM (Toxoplasma gondii; parasite growth, luciferase reporter; HFF, tachyzoite; 72 h).
Under “log2 fold change”, Cc1n[nH]c2ccc(-c3cc(OC[C@@H](N)Cc4ccccc4)cnc3-c3ccoc3)cc12 is recorded as -2.41 (kinase binding, competitor, MIB/MS competition, measured: TPK2; Candida albicans cell lysate; 10 µM; relative to: DMSO).
For CN[C@@H]1COc2c(S(=O)(=O)NC(=O)Nc3c4c(cc5c3CCC5)CCC4)cnn2C1, the inhibition was 99% (measured: IL-1β; human participants, whole blood ex vivo; 450 mg single dose, 8 h, with: LPS/ATP; relative to: baseline).
Cn1cc(Nc2nccc(-c3ccc4c(c3)CN(C3COC3)CC[C@H]4NC(=O)c3cn(C(C)(C)C)nn3)n2)cn1: “pathway activation z-score” 1.39 (measured: PPAR signalling; mouse splenic B cells, mouse; 30 mg/kg, IgD-activated B cells in vivo; relative to: vehicle, direction not given).
C=CCn1c(=O)c2cnc(Nc3ccc(N4CCN(C)CC4)cc3)nc2n1-c1ccc2c(n1)[C@@](O)(CC)CC2 — result for “tumour volume difference”: 184 ± 5.9 mm3 (T47D xenograft, BALB/c nude mice; oral, 80 mg/kg once daily x 28, day 27).
The sarcomere length of O=C(O)CNC(=O)Cc1ccccc1 is reported as 1.69 µm (ventricular cardiomyocytes, C57BL/6 mouse; dose not given, 0.288 s).
For N#Cc1ccc2c(-c3ccncc3)c(-c3ccc(F)cc3)nn2c1, “log2 fold change” read -0.169 (kinase binding, competitor, MIB/MS competition, measured: PBS2; Candida albicans cell lysate; 10 µM; relative to: DMSO).
C[C@H]1C[C@H]2CSC(N)=N[C@@]2(c2nc(NC(=O)c3ccc(OC(F)F)cn3)cs2)CO1: “percent change from baseline” -68.9% (measured: Aβ1-40; healthy adults, plasma; 15 mg once daily, day 10; relative to: placebo).
For C=Cc1c(C)c2cc3nc(c(CC(=O)O)c4[nH]c(cc5nc(cc1[nH]2)C(C)=C5CC)c(C)c4C(=O)O)[C@@H](CCC(=O)O)[C@@H]3C, “CD8+ T cells” read 20% and 20.2% and 19.9% (flow cytometry; 4T1 tumour-bearing mice, lymph nodes; 2.5 mg/kg).
